# Measured values of several laboratories.
# A part holds a random share of what one study measured.
# UniProt O75116, sequence (whole entry, looked up): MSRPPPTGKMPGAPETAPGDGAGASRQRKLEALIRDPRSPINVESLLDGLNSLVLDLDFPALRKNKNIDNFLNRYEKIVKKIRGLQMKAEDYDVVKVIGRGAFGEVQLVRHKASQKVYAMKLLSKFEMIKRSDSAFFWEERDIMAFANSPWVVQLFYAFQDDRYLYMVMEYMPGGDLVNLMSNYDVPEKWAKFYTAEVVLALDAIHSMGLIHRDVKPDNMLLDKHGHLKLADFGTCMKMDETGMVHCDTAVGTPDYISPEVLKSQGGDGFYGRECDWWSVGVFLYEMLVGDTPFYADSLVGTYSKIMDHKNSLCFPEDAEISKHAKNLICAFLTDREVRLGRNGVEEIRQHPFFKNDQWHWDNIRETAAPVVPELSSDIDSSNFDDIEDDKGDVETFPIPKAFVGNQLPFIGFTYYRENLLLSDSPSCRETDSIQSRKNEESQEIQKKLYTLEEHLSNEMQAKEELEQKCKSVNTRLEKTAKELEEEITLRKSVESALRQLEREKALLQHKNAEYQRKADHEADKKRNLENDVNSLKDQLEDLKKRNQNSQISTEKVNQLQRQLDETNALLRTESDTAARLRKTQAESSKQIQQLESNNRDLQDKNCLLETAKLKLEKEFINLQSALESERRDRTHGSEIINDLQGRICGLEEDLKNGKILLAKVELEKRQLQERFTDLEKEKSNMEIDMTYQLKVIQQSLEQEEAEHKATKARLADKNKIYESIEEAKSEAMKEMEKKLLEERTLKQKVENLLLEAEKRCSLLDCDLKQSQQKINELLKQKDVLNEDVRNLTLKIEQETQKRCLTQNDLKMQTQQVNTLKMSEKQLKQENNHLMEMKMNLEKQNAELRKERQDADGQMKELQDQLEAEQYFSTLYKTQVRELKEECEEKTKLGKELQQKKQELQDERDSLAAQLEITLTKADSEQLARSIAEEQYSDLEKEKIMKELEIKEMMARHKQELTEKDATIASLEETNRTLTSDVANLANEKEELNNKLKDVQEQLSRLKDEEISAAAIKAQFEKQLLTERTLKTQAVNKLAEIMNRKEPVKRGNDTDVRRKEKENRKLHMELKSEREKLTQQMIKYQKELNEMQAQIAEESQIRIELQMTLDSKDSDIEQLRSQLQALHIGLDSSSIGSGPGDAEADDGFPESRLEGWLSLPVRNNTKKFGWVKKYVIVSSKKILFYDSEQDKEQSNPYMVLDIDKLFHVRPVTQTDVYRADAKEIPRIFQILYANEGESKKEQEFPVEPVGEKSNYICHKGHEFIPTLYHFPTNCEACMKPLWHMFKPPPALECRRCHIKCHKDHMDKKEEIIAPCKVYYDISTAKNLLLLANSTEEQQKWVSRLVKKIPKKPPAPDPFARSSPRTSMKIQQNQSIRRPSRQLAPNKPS

# Set 1
# Target: Sal-like protein 4, full length isoform A (SALL4, Homo sapiens, UniProt Q9UJQ4, residues 1-1053)
# UniProt Q9UJQ4, sequence (whole entry, looked up): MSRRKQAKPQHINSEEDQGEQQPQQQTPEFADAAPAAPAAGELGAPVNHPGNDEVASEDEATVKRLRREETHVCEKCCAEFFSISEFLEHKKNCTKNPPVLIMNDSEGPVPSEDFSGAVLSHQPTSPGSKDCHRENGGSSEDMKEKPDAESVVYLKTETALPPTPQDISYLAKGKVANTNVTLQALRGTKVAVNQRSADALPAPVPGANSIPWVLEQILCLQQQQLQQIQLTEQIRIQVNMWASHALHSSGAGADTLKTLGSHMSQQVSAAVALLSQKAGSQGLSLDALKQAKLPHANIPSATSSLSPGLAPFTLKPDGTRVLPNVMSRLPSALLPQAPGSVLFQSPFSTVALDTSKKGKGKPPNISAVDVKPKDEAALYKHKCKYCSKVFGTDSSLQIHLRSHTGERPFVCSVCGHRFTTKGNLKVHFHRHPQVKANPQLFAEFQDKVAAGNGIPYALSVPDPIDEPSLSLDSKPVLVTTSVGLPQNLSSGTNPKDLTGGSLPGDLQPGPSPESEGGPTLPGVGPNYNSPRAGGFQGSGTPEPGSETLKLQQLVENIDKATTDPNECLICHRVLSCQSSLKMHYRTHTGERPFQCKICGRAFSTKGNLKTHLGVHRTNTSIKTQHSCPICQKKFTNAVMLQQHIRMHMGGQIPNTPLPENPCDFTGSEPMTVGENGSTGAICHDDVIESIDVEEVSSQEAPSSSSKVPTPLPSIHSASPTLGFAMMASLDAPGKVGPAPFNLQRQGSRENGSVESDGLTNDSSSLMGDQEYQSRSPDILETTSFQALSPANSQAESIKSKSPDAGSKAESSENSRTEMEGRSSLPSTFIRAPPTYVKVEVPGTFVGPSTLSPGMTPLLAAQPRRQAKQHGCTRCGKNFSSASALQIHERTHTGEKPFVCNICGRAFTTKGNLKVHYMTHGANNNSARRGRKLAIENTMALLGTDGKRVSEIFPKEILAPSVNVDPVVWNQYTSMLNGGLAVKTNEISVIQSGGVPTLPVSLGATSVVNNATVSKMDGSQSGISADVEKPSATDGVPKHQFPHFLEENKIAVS
# Method: universal PBM
# Form: double-stranded DNA, one strand shown
# Sample: in vitro
# Concentration: 600 nM
# Notes: 8-mer, flanks averaged, mean of replicates
# Reading: higher = stronger binding
Strand,E-score
CGTTCAAC,0.0369
CATCGACA,-0.075
TAACAGTA,0.233
ATTGTTAC,0.307
ACTTAGAT,0.0496
ACCGAAGC,-0.231
CACTTTAC,0.163
CCCTAACA,0.0568

# Set 2
# Target: Interferon regulatory factor 7, full length, phosphomimetic (IRF7, Homo sapiens, UniProt Q92985, residues 1-503, S471D/S472D/S475D/S476D/S477D/S483D/S484D/S487D)
# Method: protein-binding microarray
# Form: double-stranded DNA, one strand shown
# Sample: in vitro
# Concentration: 2200 nM top
# Notes: 60-bp whole probe
# Added: salmon DNA 0.4 mg/ml
# Reference: random background probes
# Reading: higher = stronger binding
# Constant ends, left off below: GCCTAGCAC … GTCTTGATTCGCTTGACGCTGCTG
# Target sequence (chain): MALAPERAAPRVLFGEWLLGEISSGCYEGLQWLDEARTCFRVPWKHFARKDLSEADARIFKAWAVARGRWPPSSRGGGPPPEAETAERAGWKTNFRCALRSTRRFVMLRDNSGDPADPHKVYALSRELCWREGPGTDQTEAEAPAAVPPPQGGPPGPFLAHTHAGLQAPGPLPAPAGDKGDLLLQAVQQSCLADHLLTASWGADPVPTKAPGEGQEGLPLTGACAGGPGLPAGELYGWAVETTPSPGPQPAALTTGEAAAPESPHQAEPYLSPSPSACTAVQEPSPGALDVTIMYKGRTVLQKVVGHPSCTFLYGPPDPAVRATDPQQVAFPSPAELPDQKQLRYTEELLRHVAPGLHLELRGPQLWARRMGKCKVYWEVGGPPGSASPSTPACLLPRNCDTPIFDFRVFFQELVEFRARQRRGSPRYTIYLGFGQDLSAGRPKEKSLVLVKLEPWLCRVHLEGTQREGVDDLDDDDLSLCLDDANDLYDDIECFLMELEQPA
Strand,fitted relative affinity [z-score]
TCATTTTGTGTTTTCATACTGTGCTAG,3.84
GACCGTATCGGTCTCGGGACGTGCTAG,0.306
TTATGACTGGACACTGGGTTAGTGCTA,-0.198
TTTAGATTTTTTTTCCTAATGTGCTAG,1.18
TTAGGTTTCGACTATCAGTTAGTGCTA,2.71
TTAGGACTGGGTATCGGTTAGTGCTAG,-0.356
TCATTTCTCAACCTCCAACTGTGCTAG,2.36
GTCGTCACTGCCATAATGCGGTGCTAG,0.233

# Set 3
# Target: RNA binding protein fox-1 homolog 2, RRM domain, GST-SBP tag (RBFOX2, Homo sapiens, UniProt O43251-10, residues 100-194)
# Method: RNA Bind-n-Seq
# Form: RNA
# Sample: in vitro
# Concentration: 365 nM
# Notes: natural RNA segment, single round, ends assumed
# Reference: no-protein control
# Reading: higher = stronger binding
# Constant ends, left off below: GGGAGUUCUACAGUCCGACGAUC … UGGAAUUCUCGGGUGCCAA
# Residues (chain): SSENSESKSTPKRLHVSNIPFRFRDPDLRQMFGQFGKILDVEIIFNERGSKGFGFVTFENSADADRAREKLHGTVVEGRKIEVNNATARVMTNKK
Strand,RBNS enrichment (R)
CUUAGAGUCAGUGAAGUUCUUGUGAUGUUUGUUAUGCUUGUAGAUUUUGGCAACUUGUAAAUAAUGUGUAUACCAAGUUUUUAUGAUUAAGGAAUCAAAUUUAUUGAAUU,1.38
GUGUCCACAAAUCUGAAUAUUAGGGGCAUGAAAUUAGGCUUACCAUCUGAUUUGUAAUUACAAUUUUGGAAUUCUCUGUUUUAGUUGCUGAGGCCUGAGUUUUCUGGCUC,2.85
UUUUAGGAGGUGUGCAUGGAUGCAAUAUAUGAAAAUGGGACAUUCUGGAACUGCUGGUCAGGGGACUUUGUCGCCCUGUGCACUAAAGGGCCAGAUUUUCAGCAGCCAAG,0.779
CAGGGAUGGCUGGCUGCUCAACACACUCCUCCUCCCCUUUUUUCCUUUCUUUAAGCUGUGUACAGUGAAAAUUGUCUUUACUGUAUUUUUGUUCUCUGGUAAUGUAAUAA,0.806
GUCUGAAAGGUGAGGGUGGCCUGACCUGGGCCUCUCCCUGCCCCUCCAUAGGUGGGUUUGUAGGGUCUUGUGUUGCUUCUGGUCUCUCCAGGCUUGGCUGAGACGGACGG,0.463
UCUGGGCAAGUGGAUAUUUAUUAGGCUAUUUCAAAGCCACAGCAUAAGAAUGUCAGCCUAGCCACAGAGUCUGAGAUUCUGAGUUCAGCCUAGCCACAGAGUCUAAGAUU,0.266
UUGCAAAGGCACAAUAAAAUUGCAUCUUCUAGAUUAUAGGCAAUAAAGAUAACAAUAAACCUUAUUUAACAAAUCAGACUGAUACUCUCUGCUUAUUUGAUUUGGUGGGG,0.524
CGCCCCUCAAAUACAGACAUCUGCUUUCAUGUGGAGACUGUCUCCAGGCCUUAUUGAGACCAGACCCCUAAGCCUCCAACCCCCCAGCAUGUCCCCUAAUGGGGACUGGC,0.272

# Single results of other studies
Compound,target,test,conditions,how to read,endpoint,result
Cc1ccc(NC(=O)c2ccc(CN3CCN(C)CC3)cc2)cc1Nc1nc(-c2cccnc2)cs1,"Rho-associated protein kinase 2 (ROCK2, Homo sapiens, UniProt O75116)","enzyme activity, inhibitor",0.5 µM,reference: control,remaining activity,95.1%

# A few entries again (set 2):
Strand,fitted relative affinity [z-score]
TTATGACTGGACACTGGGTTAGTGCTA,-0.198
TTTAGATTTTTTTTCCTAATGTGCTAG,1.18
